Measurements gathered from unrelated publications.
Protocols differ between the studies behind these lines. Values joined by “and” are separate records of one study, mostly repeats; a detail may differ. ± gives the spread as reported.

SMILES = C/C(N)=N/C(=N\S(=O)(=O)c1ccc(C(F)(F)F)cc1)N1C[C@H](c2ccccc2)C(c2ccc(Cl)cc2)=N1; test system = C57BL/6 mouse, muscle; setting = intravenous, 10 mg/kg; quantity = Tmax; value = 2 h
SMILES = COc1ccc2c(c1)CCn1c[n+]3c(c1-2)-c1ccc(OC)cc1CC3; test system = female NSG mice, blood; setting = 6 mg/kg, day 7, 5 days per week; quantity = Basophils; value = 2.57 ± 3.02%
SMILES = O=C(O)CN1CCN(CC(=O)O)CCN(CC(O)CN(CC(O)CN2CCN(CC(=O)O)CCN(CC(=O)O)CCN(CC(=O)O)CC2)C[C@H](O)[C@@H](O)[C@H](O)[C@H](O)CO)CCN(CC(=O)O)CC1 (some centres unmarked); assay = pH-potentiometry, item: ZnH2L; setting = 25 °C, 0.15 M NaCl; quantity = log K; value = 9.39
SMILES = C=C[C@]1(C)C[C@@H](OC(=O)CSc2ccc(NC(=O)c3ccco3)cc2)[C@]2(C)[C@H](C)CC[C@]3(CCC(=O)[C@H]32)[C@@H](C)[C@@H]1O; test system = Mycoplasma gallisepticum-infected chickens, plasma; setting = intramuscular, 5 mg/kg, 24 h; quantity = plasma concentration; value = 1.33 ng/mL and 0.0758 ng/mL and 0.301 ng/mL and 1.6 ng/mL
SMILES = [11CH3]N1CCC(NC(=O)c2cc(-c3c(O)cc(O)cc3Oc3ccc([N+](=O)[O-])cc3)on2)CC1; test system = Wistar rat, female, healthy, spleen; setting = intravenous, 18.5 MBq, 60 min; quantity = SUV; value = 1.3 ± 0.1
SMILES = CCCCCCCCCCCCCCCC(=O)N[C@@H](CCC(=O)NCCCC[C@H](NC(=O)[C@H](C)NC(=O)[C@H](C)NC(=O)[C@H](CCC(N)=O)NC(=O)CNC(=O)[C@H](CCC(=O)O)NC(=O)[C@H](CC(C)C)NC(=O)[C@H](Cc1ccc(O)cc1)NC(=O)[C@H](CO)NC(=O)[C@H](CO)NC(=O)[C@@H](NC(=O)[C@H](CC(=O)O)NC(=O)[C@H](CO)NC(=O)[C@@H](NC(=O)[C@H](Cc1ccccc1)NC(=O)[C@@H](NC(=O)CNC(=O)[C@H](CCC(=O)O)NC(=O)[C@H](C)NC(=O)[C@@H](N)Cc1cnc[nH]1)[C@@H](C)O)[C@@H](C)O)C(C)C)C(=O)N[C@@H](CCC(=O)O)C(=O)N[C@@H](Cc1ccccc1)C(=O)N[C@H](C(=O)N[C@@H](C)C(=O)N[C@@H](Cc1c[nH]c2ccccc12)C(=O)N[C@@H](CC(C)C)C(=O)N[C@H](C(=O)N[C@@H](CCCNC(=N)N)C(=O)NCC(=O)N[C@@H](CCCNC(=N)N)C(=O)NCC(=O)O)C(C)C)[C@@H](C)CC)C(=O)O; test system = obese diabetic cynomolgus monkey, serum; setting = dose not given, day 43; quantity = ALT; value = 49.4 ± 10.4 U/L
SMILES = CC(C)(O)c1ncc([S@](N)(=O)=NC(=O)Nc2c3c(cc4c2CCC4)CCC3)s1; assay = item: general, administration-site conditions; test system = healthy human; setting = oral, 100 mg, CT formulation, fasted; quantity = subjects with TEAEs; value = 17%
SMILES = Cc1nn(-c2nc3c(F)cc(F)cc3s2)c(O)c1C(c1ccc(C(F)(F)F)cc1)c1c(C)nn(-c2nc3c(F)cc(F)cc3s2)c1O; test system = ICR mouse; setting = intraperitoneal, 10 mg/kg, 4.00 h; quantity = plasma concentration; value = 3520 ng/mL and 1550 ng/mL and 2330 ng/mL
SMILES = C[C@@H](C(=O)O)c1ccc(-c2ccccc2)c(F)c1; assay = HPLC; test system = sample solution; setting = concentration not given, 12 h, room temperature, solution stability; quantity = peak area change, RE; value = 0.59%
SMILES = CCC1CNC(CC)CN(C(C(=O)[O-])c2ccc(C(=O)[O-])cc2)C(CC)CN(CC(=O)[O-])C(CC)CN1.[Mn+2] (centres unmarked); assay = ICP-MS; test system = BALB/c mouse, liver; setting = intravenous, 0.05 mmol/kg, 5 min, without anaesthesia; quantity = Mn content; value = 5.03 ± 0.39 µg/g
SMILES = CC(=O)N[C@@H](CCCCN)C(=O)NCCCCCC(=O)N[C@H](C(=O)N[C@@H](CO)C(=O)N[C@@H](Cc1ccccc1)C(=O)N[C@]1(C)CCCCCCC=CCCC[C@@](C)(C(=O)N[C@@H](CCC(=O)O)C(=O)N[C@@H](CC(N)=O)C(=O)N[C@@H](Cc2ccccc2)C(N)=O)NC(=O)[C@H](CC(C)C)NC(=O)[C@H](CC(C)C)NC(=O)[C@H](C)NC(=O)[C@H](Cc2c[nH]c3ccccc23)NC(=O)[C@H](Cc2ccc(O)cc2)NC(=O)[C@H](CCC(=O)O)NC1=O)[C@@H](C)O; assay = RP-HPLC C12; setting = 35 min gradient 5–95% acetonitrile; quantity = retention time; value = 21.8 min
SMILES = CSCC[C@H](N)C(=O)N[C@@H](CO)C(=O)N[C@H](C(=O)N[C@@H](C)C(=O)NCC(=O)N[C@@H](CC(C)C)C(=O)N[C@@H](CCCCN)C(=O)N[C@@H](CCCCN)C(=O)N[C@@H](CCC(N)=O)C(=O)N[C@@H](Cc1c[nH]c2ccccc12)C(=O)N[C@@H](Cc1c[nH]cn1)C(=O)N[C@@H](CCCCN)C(=O)N[C@@H](C)C(=O)N[C@H](C(=O)N[C@@H](CCC(N)=O)C(=O)N[C@@H](CCCCN)C(=O)N[C@H](C(=O)N[C@@H](CO)C(=O)N[C@@H](CCC(=O)O)C(=O)N[C@@H](CCCCN)C(=O)N[C@H](C(=O)NCC(=O)NCC(=O)N[C@@H](C)C(N)=O)C(C)C)C(C)C)[C@@H](C)O)C(C)C; assay = circular dichroism titration; test system = 100% DOPS liposomes; setting = 50 µM, pH 7.4, 20 °C; quantity = ΔG of binding; value = -7.2 kcal/mol
SMILES = CC(=O)N([O-])CCCCCNC(=O)CCC(=O)N([O-])CCCCCNC(=O)CCC(=O)N([O-])CCCCCN.[89Zr+4]; assay = radio-TLC; test system = aqueous buffer; setting = 1 d, pH 7.2, 37 °C, 89Zr-labelled complex, together with: FeCl3 100-fold excess; quantity = intact complex; value = 46.6 ± 0.6%
SMILES = COCC1CN(C2CCN(c3cc(OC)c(Nc4ncc(Br)c(Nc5ccc6c(c5P(C)(C)=O)OCCO6)n4)cc3C)CC2)C1; test system = EGFR-mutant NSCLC patients, plasma; setting = oral, 10 mg single dose, geometric mean; quantity = AUC(0-inf); value = 545 ng·h/mL
SMILES = CN1CCC[C@]1(C)/C=C/S(=O)(=O)NC(=O)Nc1c2c(cc3c1C(O)CC3)CCC2 (some centres unmarked); test system = human, plasma; setting = oral, 100 mg twice daily of parent drug, day 14, metabolite of dosed drug; quantity = Cmax at second steady-state dose; value = 20400 ng/mL
SMILES = CCCCN1C(=O)c2cccc3c(NCCCCN4CCOCC4)ccc(c23)C1=O; test system = acetonitrile; quantity = fluorescence quantum yield; value = 0.26
SMILES = CN(C)S(=O)(=O)c1ccc(S(=O)(=O)N2CCC(n3c(=O)[nH]c4ccccc43)CC2)cc1; test system = mouse; setting = intraperitoneal, 6 mg/kg, 3 day; scale = reference: day 0; quantity = body weight; value = 95.4%
SMILES = CN([O-])C(=O)CN1CCN(CC(=O)N(C)[O-])CCN(Cc2ccccn2)CC1.[89Zr+4]; test system = mouse, bone; setting = intravenous, 1 h; quantity = tracer uptake; value = 2.76 %ID/g
SMILES = CC[C@H](C)[C@H](NC(=O)[C@H](CCCCN)NC(C)=O)C(=O)N[C@@H](C)C(=O)N[C@@H](C)C(=O)N[C@@H](CC(C)C)C(=O)N[C@@H](CCCCN)C(=O)N[C@@H](CCC(=O)O)C(=O)N[C@@H](CCCCN)C(=O)N[C@H](C(=O)N[C@@H](C)C(=O)N[C@@H](C)C(=O)N[C@@H](CC(C)C)C(=O)N[C@@H](CCCCN)C(=O)N[C@@H](CCC(=O)O)C(=O)N[C@@H](CCCCN)C(=O)N[C@H](C(=O)N[C@H]1CSCc2ccccc2CSC[C@@H](C(=O)NCC(=O)N[C@@H](Cc2c[nH]c3ccccc23)C(N)=O)NC(=O)[C@H](CCCCN)NC(=O)[C@H](CC(C)C)NC(=O)[C@H](C)NC1=O)[C@@H](C)CC)[C@@H](C)CC; assay = tryptophan fluorescence titration; test system = DOPC/DOPE/cholesterol 2:1:1 liposomes in PBS; quantity = ΔG of membrane partitioning; value = -6.75 kcal/mol
SMILES = [O-]c1ccnc(-c2cc([O-])ccn2)c1.[Ru+2].c1ccc(-c2ccnc3c2ccc2c(-c4ccccc4)ccnc23)cc1.c1ccc(-c2ccnc3c2ccc2c(-c4ccccc4)ccnc23)cc1; test system = acetonitrile; setting = basic deprotonated form; quantity = singlet oxygen quantum yield; value = 0.19
SMILES = Cc1ccc(C(NC(=O)c2cc(-c3ccccc3)n(-c3ccccc3)n2)c2ccncc2)cc1 (centres unmarked); test system = rat liver microsomes; setting = 4 h; quantity = depletion; value = < 30%
SMILES = COc1ccccc1/C=C/CN1CCCC(CCC(=O)NCc2ccccc2F)C1 (centres unmarked); tested on = Trypanosoma cruzi; assay = reporter mRNA translation, inhibitor, item: capped polyadenylated Renilla luciferase mRNA; test system = cell-free extract; setting = concentration not given; scale = reference: control RNA; quantity = relative translation; value = 106%
SMILES = C=CC(=O)Nc1cc(Nc2nccc(-c3cn(C)c4ccccc34)n2)c(OC)cc1N(C)CCNC; assay = storage stability; test system = human plasma; setting = 2 h, -80 °C, LLOQ level; quantity = recovery; value = 100%
SMILES = CCCCCCCOc1ccc(CC[C@](N)(CO)COP(=O)(O)O)cc1C(F)(F)F; test system = healthy human males, plasma; setting = 0.25 mg, day 1; quantity = Cmax; value = 0.722 ng/mL
SMILES = COc1ccc(C(N)=O)cn1; test system = Han Wistar rats, male, plasma; setting = oral, 30 mg/kg, 3.00 h; quantity = concentration at time; value = 15.7 µM
SMILES = CC(C)=CCC1=C([O-])C(=O)c2ccccc2C1=O.CC(C)=CCC1=C([O-])C(=O)c2ccccc2C1=O.O.[Cu+2].c1ccc(-c2ccccn2)nc1; assay = cyclic voltammetry; test system = CH2Cl2, Bu4NPF6; setting = 0.1 mM; scale = reference: Ag/AgCl sat. KOH; quantity = Epa1 anodic peak potential; value = 1.45 V
SMILES = CCCC[C@H](OC(C)=O)c1ccccc1C(=O)O; test system = beagle dogs, both sexes, whole blood; setting = intravenous, 5 mg/kg single dose, 1 min; quantity = blood concentration; value = 16200 ± 3470 ng/mL
SMILES = C1CCC(OCCN2CCN(CCOC3CCCCC3)CC2)CC1; tested on = Trypanosoma cruzi; assay = reporter mRNA translation, inhibitor, item: Renilla luciferase mRNA; test system = cell-free extract; setting = concentration not given, test 2; scale = reference: positive over negative control; quantity = translation activity; value = 120% and 97%
SMILES = Cc1cc(-c2ccc(C(=O)[C@@H]3CCCC[C@H]3C(=O)Nc3cnn4c3C(=O)NCC4)cc2)[nH]n1; test system = human, faeces; setting = oral, 200 mg, 96-120 h; scale = reference: dose; quantity = recovery of radioactivity per interval; value = 2.72%
SMILES = [123I]c1ccc2nc(-c3ccc(-n4ccnn4)nc3)cn2c1; test system = male Wistar rat, large intestine; setting = intravenous, 4 MBq, 30 min; quantity = tissue uptake; value = 0.118 ± 0.003 %ID/g
SMILES = CN1CCCNC(=O)c2cccc(c2)C(=O)NCCCN(C)CCCNc2cccc3c2C(=O)c2cccc(c2C3=O)NCCC1; test system = mouse xenograft model; setting = dose not given, day 2, group mean; quantity = body weight; value = 25.8 g
SMILES = O=C(O)CCCOc1ccc([18F])cc1-c1cc(-c2ccccc2C(F)(F)F)n(-c2ccccc2)n1; assay = OLINDA/EXM extrapolation from mouse; test system = human adult, red marrow; quantity = absorbed radiation dose; value = 9.97 µGy/MBq
SMILES = O=C(Nc1cnccc1-c1ccc([18F])nc1)c1ccnc(NC(=O)C2CC2)c1; assay = ex vivo gamma counting; test system = FVB/NJ mice, both sexes, salivary gland; setting = intravenous, 120 min, together with: tariquidar 15 mg/kg iv; quantity = mean SUV; value = 0.186
SMILES = CN(O)C(=O)CCC(=O)NCCCN(CCCCN(CCCNC(=O)CCC(=O)N(C)O)C(=O)CCC(=O)N(C)O)C(=O)CCC(=O)N(C)O.[89Zr]; test system = mouse, blood; setting = 4 h; quantity = tracer uptake; value = 0.01 %ID/g
SMILES = Cc1c(Cc2ccc(F)c(OC(C)C(=O)O)c2)c2ccc(C(=O)NC(C)c3ccc(C(C)(C)C)cc3)cc2n1CC1CCC1 (centres unmarked); test system = human liver microsomes; setting = 1 µM, together with: microsomes 1 mg/mL; quantity = half-life; value = > 1 h

Some of these lines once more:
SMILES = Cc1ccc(C(NC(=O)c2cc(-c3ccccc3)n(-c3ccccc3)n2)c2ccncc2)cc1 (centres unmarked); test system = rat liver microsomes; setting = 4 h; quantity = depletion; value = < 30%
SMILES = CCCCCCCOc1ccc(CC[C@](N)(CO)COP(=O)(O)O)cc1C(F)(F)F; test system = healthy human males, plasma; setting = 0.25 mg, day 1; quantity = Cmax; value = 0.722 ng/mL
SMILES = CC(=O)N([O-])CCCCCNC(=O)CCC(=O)N([O-])CCCCCNC(=O)CCC(=O)N([O-])CCCCCN.[89Zr+4]; assay = radio-TLC; test system = aqueous buffer; setting = 1 d, pH 7.2, 37 °C, 89Zr-labelled complex, together with: FeCl3 100-fold excess; quantity = intact complex; value = 46.6 ± 0.6%
SMILES = CCCCN1C(=O)c2cccc3c(NCCCCN4CCOCC4)ccc(c23)C1=O; test system = acetonitrile; quantity = fluorescence quantum yield; value = 0.26
